Measurements from different studies.
Parts stem from different laboratories: compare values within a part only. Several values in a cell are separate wells, animals, samples, runs or records.
Sequence of UniProt P11229 (whole entry, looked up): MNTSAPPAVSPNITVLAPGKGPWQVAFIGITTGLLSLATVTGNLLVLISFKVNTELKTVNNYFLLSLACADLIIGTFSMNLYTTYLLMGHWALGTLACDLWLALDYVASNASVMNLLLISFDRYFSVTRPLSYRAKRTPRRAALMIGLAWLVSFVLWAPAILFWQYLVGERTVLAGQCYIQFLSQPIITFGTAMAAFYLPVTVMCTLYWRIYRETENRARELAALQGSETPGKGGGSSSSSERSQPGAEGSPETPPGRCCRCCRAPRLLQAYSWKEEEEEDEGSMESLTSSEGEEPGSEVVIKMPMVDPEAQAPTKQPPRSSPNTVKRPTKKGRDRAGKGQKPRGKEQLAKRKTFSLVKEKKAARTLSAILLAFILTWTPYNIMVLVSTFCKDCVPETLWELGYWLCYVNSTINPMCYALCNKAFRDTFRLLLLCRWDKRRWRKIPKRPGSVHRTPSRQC
Sequence of UniProt P20309 (whole entry, looked up): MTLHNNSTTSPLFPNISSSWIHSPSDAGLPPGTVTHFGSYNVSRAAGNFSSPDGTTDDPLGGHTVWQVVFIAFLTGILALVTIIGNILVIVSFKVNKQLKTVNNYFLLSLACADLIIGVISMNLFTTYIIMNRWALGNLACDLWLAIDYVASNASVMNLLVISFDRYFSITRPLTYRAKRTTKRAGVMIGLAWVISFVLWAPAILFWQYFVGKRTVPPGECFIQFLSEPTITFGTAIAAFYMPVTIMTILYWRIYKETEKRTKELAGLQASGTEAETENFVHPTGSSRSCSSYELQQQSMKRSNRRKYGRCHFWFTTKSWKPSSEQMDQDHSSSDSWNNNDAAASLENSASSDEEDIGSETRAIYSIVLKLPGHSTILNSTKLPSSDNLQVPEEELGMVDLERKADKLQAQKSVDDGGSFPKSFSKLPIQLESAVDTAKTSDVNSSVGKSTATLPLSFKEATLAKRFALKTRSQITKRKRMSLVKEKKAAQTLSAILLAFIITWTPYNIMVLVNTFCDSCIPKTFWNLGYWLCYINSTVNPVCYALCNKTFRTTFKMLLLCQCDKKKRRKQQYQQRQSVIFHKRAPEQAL
Sequence of UniProt P41145 (whole entry, looked up): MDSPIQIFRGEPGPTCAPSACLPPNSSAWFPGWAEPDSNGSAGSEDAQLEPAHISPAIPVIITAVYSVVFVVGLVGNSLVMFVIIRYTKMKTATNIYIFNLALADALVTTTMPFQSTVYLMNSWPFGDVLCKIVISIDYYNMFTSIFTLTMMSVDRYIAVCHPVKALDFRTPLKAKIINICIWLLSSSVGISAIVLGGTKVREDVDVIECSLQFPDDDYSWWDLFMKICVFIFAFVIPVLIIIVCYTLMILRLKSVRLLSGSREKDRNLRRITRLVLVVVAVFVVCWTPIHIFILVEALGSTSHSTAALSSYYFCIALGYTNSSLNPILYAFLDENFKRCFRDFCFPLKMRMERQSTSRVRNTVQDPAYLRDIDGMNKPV

Series 1 — observed: enzyme activity; mode: inhibitor; tested at: 10 µM
Target: Calcium/calmodulin-dependent protein kinase type II subunit alpha (CAMK2A, Homo sapiens, UniProt Q9UQM7)
Sequence of UniProt Q9UQM7 (whole entry, looked up): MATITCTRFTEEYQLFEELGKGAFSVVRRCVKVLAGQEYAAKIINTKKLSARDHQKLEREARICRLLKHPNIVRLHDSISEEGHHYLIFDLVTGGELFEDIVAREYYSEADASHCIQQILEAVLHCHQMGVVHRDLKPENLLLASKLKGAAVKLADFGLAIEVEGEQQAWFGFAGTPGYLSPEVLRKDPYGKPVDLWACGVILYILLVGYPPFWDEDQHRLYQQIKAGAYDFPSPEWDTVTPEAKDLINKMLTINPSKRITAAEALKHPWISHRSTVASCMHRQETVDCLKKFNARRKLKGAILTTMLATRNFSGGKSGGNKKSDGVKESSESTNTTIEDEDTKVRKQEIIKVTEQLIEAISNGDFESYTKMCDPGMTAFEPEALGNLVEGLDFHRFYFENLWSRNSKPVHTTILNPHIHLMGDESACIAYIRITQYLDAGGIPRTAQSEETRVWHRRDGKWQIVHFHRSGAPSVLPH
Compound	inhibition [%]
C=C[C@H]1[C@H](O[C@@H]2O[C@H](CO)[C@@H](O)[C@H](O)[C@H]2O)OC=C2C(=O)OCC[C@H]21	-9
C1=C2CCCN[C@H]2[C@@H]2C[C@H]1[C@H]1CCCCN1C2	8
CC(=O)C(=O)c1ccccc1	-6
c1cc2c(cc1[C@H]1OC[C@H]3[C@@H]1CO[C@@H]3c1ccc3c(c1)OCO3)OCO2	29
O=C(O)CNC(=O)C1C(=O)N(C2CCCCC2)C(=O)N(C2CCCCC2)C1=O	-7

Series 2 — observed: ligand displacement; tested at: 10 µM
SMILES: N#CN1CC[C@H](C(=O)Nc2nc3c(s2)CN(C(=O)CN=[N+]=[N-])CC3)C1
target	inhibition
CHRM3 (Homo sapiens, UniProt P20309)	-1.04%
OPRK1 (Homo sapiens, UniProt P41145)	0.19%
CHRM1 (Homo sapiens, UniProt P11229)	7.58%

Series 3 — organism: Sarcocystis neurona; observed: parasite growth; tested at: 10 µM; time: 96 h; notes: first screen; baseline: untreated
SMILES	log2 fold change
C[C@]12Cc3c[nH]nc3C[C@@H]1CC[C@@H]1[C@@H]2CC[C@@]2(C)[C@H]1CC[C@]2(C)O	-0.25
Cc1ccc(-c2nc3ccc(C)cn3c2CC(=O)N(C)C)cc1	0.85
CCOC(=O)C1(c2ccccc2)CCN(CCC(C#N)(c2ccccc2)c2ccccc2)CC1	-0.33
CC(C)CC(N(C)C)C1(c2ccc(Cl)cc2)CCC1 (centres unmarked)	-0.00194
CC(C)/N=c1\cc2n(-c3ccc(Cl)cc3)c3ccccc3nc-2cc1Nc1ccc(Cl)cc1	-7.42

Series 4 — cell line: mouse MPNST tumor cells; technique: high-content nuclear imaging; refers to: cell number; tested at: 10 µM; time: 12 h; notes: mean of 2 replicates; baseline: plate mean; reading: higher = more cells
Compound	nuclei count
O=[N+]([O-])O[C@H]1CO[C@H]2[C@@H]1OC[C@H]2O[N+](=O)[O-]	0.174 z-score and 1.35 z-score
C[C@]12COC(=O)C[C@@H]1CC[C@@H]1[C@@H]2CC[C@@]2(C)[C@H]1CC[C@]2(C)O	4.63 z-score
CC(=O)OCC(=O)[C@H]1CC[C@H]2[C@@H]3CC[C@H]4C[C@H](O)CC[C@]4(C)[C@H]3C(=O)C[C@]12C	2.44 z-score
CC(C)[C@@]1(NC(=O)[C@@H]2C[C@@H]3c4cccc5[nH]cc(c45)C[C@H]3N(C)C2)O[C@@]2(O)[C@@H]3CCCN3C(=O)[C@H](Cc3ccccc3)N2C1=O	4.55 z-score
Cc1ccccc1C(c1ccccc1C)N1C2CCC1CC(O)(c1ccccc1)C2 (centres unmarked)	3.04 z-score
CN(C)[C@@H]1C(=O)C(C(N)=O)=C(O)[C@@]2(O)C(=O)C3=C(O)c4c(O)cccc4[C@@](C)(O)[C@H]3[C@H](O)[C@@H]12	-0.0671 z-score
O=C1NC(=O)c2c1c1c3ccccc3[nH]c1c1[nH]c3ccccc3c21	6.49 z-score

Series 5 — observed: enzyme activity; mode: inhibitor; technique: radiometric; tested at: 0.5 µM
Target: Leukocyte tyrosine kinase receptor (LTK, Homo sapiens, UniProt P29376)
Sequence of UniProt P29376 (whole entry, looked up): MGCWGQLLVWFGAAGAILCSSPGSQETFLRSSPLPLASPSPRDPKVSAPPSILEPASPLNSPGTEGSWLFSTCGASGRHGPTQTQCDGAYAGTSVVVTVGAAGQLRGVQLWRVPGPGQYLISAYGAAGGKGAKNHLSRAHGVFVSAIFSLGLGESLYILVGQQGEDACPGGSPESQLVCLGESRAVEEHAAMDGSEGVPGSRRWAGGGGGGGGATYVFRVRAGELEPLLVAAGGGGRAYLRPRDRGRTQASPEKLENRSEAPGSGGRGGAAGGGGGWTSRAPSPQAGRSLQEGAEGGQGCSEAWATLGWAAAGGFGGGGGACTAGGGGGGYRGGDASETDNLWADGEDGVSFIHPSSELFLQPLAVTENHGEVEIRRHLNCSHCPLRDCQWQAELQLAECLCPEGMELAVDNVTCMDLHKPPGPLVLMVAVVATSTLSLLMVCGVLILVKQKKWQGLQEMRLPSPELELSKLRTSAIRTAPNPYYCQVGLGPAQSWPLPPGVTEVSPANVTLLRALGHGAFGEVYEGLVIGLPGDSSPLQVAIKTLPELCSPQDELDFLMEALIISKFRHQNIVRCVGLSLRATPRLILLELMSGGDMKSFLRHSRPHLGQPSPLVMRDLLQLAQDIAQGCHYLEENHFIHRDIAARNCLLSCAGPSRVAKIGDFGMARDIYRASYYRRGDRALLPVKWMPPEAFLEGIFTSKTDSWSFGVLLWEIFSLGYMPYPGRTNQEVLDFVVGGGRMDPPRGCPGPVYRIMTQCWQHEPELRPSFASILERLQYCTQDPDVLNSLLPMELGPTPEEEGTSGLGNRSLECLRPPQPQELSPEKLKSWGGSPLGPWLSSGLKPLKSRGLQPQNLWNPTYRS
SMILES	remaining activity [%]
N#CCCc1ccc2c(c1)-c1[nH]c3ccc([N+](=O)[O-])cc3c1CC(=O)N2	80
O=S(=O)(c1cccc2cnccc12)N1CCCNCC1	95.2
Nc1ccc2ncnc(NCCc3ccc(Oc4ccccc4)cc3)c2c1	106
CO[C@H]1C[C@@H]2CC[C@@H](C)[C@@](O)(O2)C(=O)C(=O)N2CCCC[C@H]2C(=O)O[C@H]([C@H](C)C[C@@H]2CC[C@@H](O)[C@H](OC)C2)CC(=O)[C@H](C)/C=C(\C)[C@@H](O)[C@@H](OC)C(=O)[C@H](C)C[C@H](C)/C=C/C=C/C=C/1C	107
Oc1ccc(-c2nc(-c3ccncc3)c(-c3ccc(F)cc3)[nH]2)cc1	97.1
O=C1NC(=O)C(c2cn(CCCO)c3ncccc23)=C1c1cnccn1	90.9
Cc1cccc(-c2[nH]c(C(C)(C)C)nc2-c2ccc3c(c2)OCO3)n1	99.2
Cc1ccc(NC(=O)c2ccc(CN3CCN(C)CC3)cc2)cc1Nc1nc(-c2cccnc2)cs1	102
Cc1ccc(Nc2nccc(N(C)c3ccc4c(C)n(C)nc4c3)n2)cc1S(N)(=O)=O	80.2
O=C1NC(=O)c2cc(Nc3ccc(F)cc3)c(Nc3ccc(F)cc3)cc21	99.7
C#Cc1cccc(Nc2ncnc3cc(OCCOC)c(OCCOC)cc23)c1	66.3
O=C(Nc1cccc(Nc2cc(Nc3cccc(C(F)(F)F)c3)ncn2)c1)C1CC1	96.8
Cc1nc(-c2ccccc2)c(-c2ccncc2)o1	107
CNC(=O)c1cc(Oc2ccc(NC(=O)Nc3ccc(Cl)c(C(F)(F)F)c3)cc2)ccn1	99.9
CN(C)c1ccc(C=C2C(=O)Nc3ccccc32)cc1	96.8
Cn1sc(=O)n(Cc2ccccc2)c1=O	101
O=C1Nc2ccc3ncsc3c2/C1=C/c1cnc[nH]1	83
CCOC(=O)c1c(C)[nH]c(/C=C2\C(=O)Nc3ccccc32)c1C	66.9

Some of these lines once more (series 5):
SMILES	remaining activity [%]
Cc1ccc(Nc2nccc(N(C)c3ccc4c(C)n(C)nc4c3)n2)cc1S(N)(=O)=O	80.2
Cc1cccc(-c2[nH]c(C(C)(C)C)nc2-c2ccc3c(c2)OCO3)n1	99.2
